Assay results gathered from unrelated publications.
Lines come from different studies, so protocols differ. “And” joins repeats or separate records; there may be more than shown. ± gives the spread as reported.
PARP1: Poly [ADP-ribose] polymerase 1 (PARP1, Homo sapiens, UniProt P09874)
Sequence of UniProt P09874 (whole entry, looked up): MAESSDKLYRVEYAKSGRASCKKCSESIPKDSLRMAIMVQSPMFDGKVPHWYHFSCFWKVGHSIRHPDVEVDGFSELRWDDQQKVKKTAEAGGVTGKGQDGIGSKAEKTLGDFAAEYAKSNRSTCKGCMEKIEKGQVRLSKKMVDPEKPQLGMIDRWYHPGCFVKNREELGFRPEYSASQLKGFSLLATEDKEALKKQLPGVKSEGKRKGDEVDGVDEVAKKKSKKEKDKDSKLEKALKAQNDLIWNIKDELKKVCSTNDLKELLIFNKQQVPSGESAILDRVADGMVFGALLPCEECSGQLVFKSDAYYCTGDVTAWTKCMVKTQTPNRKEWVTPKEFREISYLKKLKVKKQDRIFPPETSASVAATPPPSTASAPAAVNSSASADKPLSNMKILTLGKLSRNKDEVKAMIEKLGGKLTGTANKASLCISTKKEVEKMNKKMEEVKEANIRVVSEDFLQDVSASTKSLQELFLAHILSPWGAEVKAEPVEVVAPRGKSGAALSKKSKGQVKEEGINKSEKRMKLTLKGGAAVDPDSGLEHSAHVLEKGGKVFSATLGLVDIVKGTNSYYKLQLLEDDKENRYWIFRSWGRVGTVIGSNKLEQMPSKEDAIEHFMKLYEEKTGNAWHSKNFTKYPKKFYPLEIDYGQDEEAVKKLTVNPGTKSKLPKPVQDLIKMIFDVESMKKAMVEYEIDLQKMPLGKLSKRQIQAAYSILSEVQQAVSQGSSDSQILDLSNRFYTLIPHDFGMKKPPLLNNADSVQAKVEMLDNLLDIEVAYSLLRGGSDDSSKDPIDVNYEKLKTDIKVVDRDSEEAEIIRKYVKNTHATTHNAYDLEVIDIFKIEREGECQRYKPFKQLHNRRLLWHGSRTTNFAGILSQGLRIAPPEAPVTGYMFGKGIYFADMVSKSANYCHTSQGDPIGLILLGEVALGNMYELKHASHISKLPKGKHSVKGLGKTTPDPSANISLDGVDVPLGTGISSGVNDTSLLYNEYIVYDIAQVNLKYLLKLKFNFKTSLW
FAAH: Fatty-acid amide hydrolase 1 (FAAH, Homo sapiens, UniProt O00519)
Sequence of UniProt O00519 (whole entry, looked up): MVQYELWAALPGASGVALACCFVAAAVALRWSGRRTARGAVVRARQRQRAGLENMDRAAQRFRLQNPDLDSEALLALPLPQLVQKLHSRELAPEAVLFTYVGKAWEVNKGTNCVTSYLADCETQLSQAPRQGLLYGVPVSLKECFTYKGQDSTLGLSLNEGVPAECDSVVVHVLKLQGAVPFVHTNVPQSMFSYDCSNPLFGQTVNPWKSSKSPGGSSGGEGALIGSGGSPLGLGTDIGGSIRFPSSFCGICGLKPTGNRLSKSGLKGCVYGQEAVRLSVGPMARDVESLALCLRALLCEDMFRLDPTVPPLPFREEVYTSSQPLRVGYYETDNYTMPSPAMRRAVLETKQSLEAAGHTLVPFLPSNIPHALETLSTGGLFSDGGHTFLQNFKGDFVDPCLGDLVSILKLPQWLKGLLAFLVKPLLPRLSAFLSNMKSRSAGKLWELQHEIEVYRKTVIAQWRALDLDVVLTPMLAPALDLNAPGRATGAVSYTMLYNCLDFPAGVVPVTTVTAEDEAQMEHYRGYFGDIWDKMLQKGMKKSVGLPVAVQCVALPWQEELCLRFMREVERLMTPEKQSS
CXCR4: C-X-C chemokine receptor type 4 (CXCR4, Homo sapiens, UniProt P61073)
Sequence of UniProt P61073 (whole entry, looked up): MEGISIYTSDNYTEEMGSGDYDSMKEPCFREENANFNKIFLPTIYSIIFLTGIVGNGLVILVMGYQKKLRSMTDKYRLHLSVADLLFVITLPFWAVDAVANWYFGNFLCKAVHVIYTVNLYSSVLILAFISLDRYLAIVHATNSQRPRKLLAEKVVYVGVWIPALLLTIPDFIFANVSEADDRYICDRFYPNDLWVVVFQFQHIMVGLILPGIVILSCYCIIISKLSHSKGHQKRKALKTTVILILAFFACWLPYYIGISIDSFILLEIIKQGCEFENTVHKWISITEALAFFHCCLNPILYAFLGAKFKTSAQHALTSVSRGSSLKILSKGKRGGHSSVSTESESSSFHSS
HDAC8: Histone deacetylase 8 (HDAC8, Homo sapiens, UniProt Q9BY41)
Sequence of UniProt Q9BY41 (whole entry, looked up): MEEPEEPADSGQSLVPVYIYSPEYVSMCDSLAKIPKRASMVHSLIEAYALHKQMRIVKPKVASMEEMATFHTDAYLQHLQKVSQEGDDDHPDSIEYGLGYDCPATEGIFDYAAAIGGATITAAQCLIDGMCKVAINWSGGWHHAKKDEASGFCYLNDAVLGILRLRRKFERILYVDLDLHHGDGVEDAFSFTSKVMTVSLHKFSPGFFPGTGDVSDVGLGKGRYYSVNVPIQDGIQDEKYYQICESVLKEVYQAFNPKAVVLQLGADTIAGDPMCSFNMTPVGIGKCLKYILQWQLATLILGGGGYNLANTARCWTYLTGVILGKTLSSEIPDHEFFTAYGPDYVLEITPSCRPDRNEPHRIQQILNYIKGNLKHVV
Sequence of UniProt P35346 (whole entry, looked up): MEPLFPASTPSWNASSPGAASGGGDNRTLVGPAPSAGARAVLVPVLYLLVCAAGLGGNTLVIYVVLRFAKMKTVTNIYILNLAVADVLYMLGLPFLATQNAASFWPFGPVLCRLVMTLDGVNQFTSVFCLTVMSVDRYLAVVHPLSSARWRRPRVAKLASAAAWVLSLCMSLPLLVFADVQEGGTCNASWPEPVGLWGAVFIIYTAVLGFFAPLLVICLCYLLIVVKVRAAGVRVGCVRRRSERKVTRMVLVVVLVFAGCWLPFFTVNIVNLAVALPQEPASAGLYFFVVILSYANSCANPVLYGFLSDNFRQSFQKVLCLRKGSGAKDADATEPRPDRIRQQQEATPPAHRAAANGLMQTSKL
Sequence of UniProt Q9NTG7 (whole entry, looked up): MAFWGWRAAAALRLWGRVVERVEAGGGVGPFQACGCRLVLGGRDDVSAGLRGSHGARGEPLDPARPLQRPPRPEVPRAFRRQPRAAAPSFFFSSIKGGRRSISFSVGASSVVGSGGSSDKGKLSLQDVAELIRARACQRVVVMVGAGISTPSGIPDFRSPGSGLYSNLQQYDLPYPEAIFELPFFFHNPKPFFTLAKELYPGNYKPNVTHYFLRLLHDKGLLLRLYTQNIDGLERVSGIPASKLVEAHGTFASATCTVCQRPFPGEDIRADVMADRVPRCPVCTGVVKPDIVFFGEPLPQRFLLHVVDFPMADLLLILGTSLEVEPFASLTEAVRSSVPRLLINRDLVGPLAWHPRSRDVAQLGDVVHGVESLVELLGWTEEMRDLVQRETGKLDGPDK
Sequence of UniProt Q86U42 (whole entry, looked up): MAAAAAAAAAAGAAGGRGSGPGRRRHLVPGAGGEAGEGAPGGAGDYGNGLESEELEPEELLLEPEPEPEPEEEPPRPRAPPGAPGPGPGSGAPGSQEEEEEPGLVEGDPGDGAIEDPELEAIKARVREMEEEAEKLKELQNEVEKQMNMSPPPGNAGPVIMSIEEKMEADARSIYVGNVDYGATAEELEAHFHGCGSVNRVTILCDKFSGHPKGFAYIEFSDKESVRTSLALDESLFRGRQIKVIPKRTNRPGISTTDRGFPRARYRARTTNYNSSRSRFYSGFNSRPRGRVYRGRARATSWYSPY
Sequence of UniProt O75874 (whole entry, unmodified, looked up): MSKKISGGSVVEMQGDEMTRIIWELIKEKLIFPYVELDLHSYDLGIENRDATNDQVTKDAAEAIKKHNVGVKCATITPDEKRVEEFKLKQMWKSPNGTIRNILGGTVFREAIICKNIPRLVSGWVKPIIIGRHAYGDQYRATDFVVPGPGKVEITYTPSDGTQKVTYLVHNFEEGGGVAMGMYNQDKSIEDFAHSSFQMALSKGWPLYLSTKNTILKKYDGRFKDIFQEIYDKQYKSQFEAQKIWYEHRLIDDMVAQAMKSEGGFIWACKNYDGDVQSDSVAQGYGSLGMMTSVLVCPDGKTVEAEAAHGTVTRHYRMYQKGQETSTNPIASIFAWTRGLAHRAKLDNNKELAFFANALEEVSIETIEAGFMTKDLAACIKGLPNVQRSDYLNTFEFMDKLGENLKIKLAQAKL
Sequence of UniProt P27694 (whole entry, looked up): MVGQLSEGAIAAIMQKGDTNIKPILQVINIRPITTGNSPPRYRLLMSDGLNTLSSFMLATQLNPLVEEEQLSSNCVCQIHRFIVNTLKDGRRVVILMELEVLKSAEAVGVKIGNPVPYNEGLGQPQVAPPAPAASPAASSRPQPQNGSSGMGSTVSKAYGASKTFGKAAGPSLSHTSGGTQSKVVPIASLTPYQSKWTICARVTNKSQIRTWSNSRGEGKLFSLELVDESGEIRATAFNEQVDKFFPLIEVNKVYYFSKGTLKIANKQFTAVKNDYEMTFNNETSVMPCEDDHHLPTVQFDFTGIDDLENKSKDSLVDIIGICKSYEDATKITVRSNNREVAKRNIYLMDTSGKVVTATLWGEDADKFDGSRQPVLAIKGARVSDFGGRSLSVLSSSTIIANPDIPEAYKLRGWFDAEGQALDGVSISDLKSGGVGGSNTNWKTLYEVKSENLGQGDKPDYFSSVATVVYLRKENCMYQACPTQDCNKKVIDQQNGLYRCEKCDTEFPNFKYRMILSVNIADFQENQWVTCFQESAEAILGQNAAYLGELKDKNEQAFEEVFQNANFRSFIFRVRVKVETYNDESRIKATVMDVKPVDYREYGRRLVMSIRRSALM
Sequence of UniProt P23025 (whole entry, looked up): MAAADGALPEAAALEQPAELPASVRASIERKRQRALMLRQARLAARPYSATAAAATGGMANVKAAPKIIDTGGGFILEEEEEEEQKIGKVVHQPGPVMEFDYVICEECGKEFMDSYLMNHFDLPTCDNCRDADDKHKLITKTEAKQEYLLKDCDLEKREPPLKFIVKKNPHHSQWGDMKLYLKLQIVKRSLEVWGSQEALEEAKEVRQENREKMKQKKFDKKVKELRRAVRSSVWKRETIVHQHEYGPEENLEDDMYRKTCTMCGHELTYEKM

SMILES | target | test | test system | setting | IC50
O=C(CSc1nc2ccccc2c(=O)n1-c1ccccc1)Nc1ccc(C(=O)C=Cc2ccc(Cl)cc2)cc1 | PARP1 | enzyme activity, inhibitor, absorbance |  |  | 0.173 µM
COc1ccccc1Cn1cc(COC(=O)NC2CCCCC2)nn1 | FAAH | enzyme activity, inhibitor, fluorescence |  | cell membranes | 0.337 µM
c1nc2c(NCc3ccc(CNCCCNC4CCCCC4)cc3)nc(N3CCNCC3)nc2[nH]1 | CXCR4 | ligand displacement, radioligand |  | cell membranes | 0.0181 µM
C#Cc1ccc2c(C)c(-c3ccccc3)c(=O)oc2c1 | Cytochrome P450 1A1 (CYP1A1, Homo sapiens, UniProt P04798) | enzyme activity, inhibitor, fluorescence |  | 6 min, pH 7.6 | 4.48 µM
CC(=O)n1c(=S)[nH]c2ccccc21 | mbtI (Mycobacterium tuberculosis, UniProt P9WFX1) | enzyme activity, inhibitor, continuous fluorescence |  | added: chorismate | 9.2 ± 0.9 µM
Cc1ncc([N+](=O)[O-])n1CC(C)O (centres unmarked) | Cytochrome P450 2D6 (CYP2D6, Homo sapiens, UniProt P10635) | enzyme activity, inhibitor | human liver microsomes | 30 min, added: dextromethorphan | > 500 µM
CC1=NN(c2cccc(C(=O)O)c2)C(=O)/C1=C\c1ccc(-c2ccc(Cl)c(C(=O)NC3CC3)c2)o1 | DNA repair protein complementing XP-A cells (Homo sapiens, UniProt P23025) | binding to cisplatin-DNA, EMSA |  | full-length XPA | > 25 µM
CC(C)(C)NCCCNC(=O)c1cccc(Br)c1 | Lethal(3)malignant brain tumor-like protein 3 (Homo sapiens, UniProt Q96JM7) | methyllysine binding, inhibitor, AlphaScreen |  |  | > 500 µM
O=C(Nc1cc(F)c(F)c(F)c1)c1cc(S(=O)(=O)N2CCOCC2)c(Cl)cc1Cl | Lysophosphatidic acid receptor 4 (LPAR4, Homo sapiens, UniProt Q99677) | Ca2+ mobilization, antagonist | CHO | added: LPA at EC50 | > 100 µM
NC(=O)c1cccc2c1O[C@@H](CO)CO2 | PARP1 |  |  |  | 7.8 ± 2.7 µM
O=C(CCCCCC(=O)NN=Cc1ccc(-c2ccccc2)cc1)NO | HDAC8 | inhibitor |  |  | > 2 µM
Cc1ccc(-c2nn(-c3ccccc3)cc2C2CC(c3ccc(Br)cc3)=NN2C(=O)CCC(=O)O)cc1 (centres unmarked) | Replication protein A 70 kDa DNA-binding subunit (RPA1, Homo sapiens, UniProt P27694) | protein-nucleic acid interaction, inhibitor, mobility shift |  |  | 56.1 µM
O=c1[nH]c2ccccc2n1C1CCN(CCCC(c2ccc(F)cc2)c2ccc(F)cc2)CC1 | Ubiquitin carboxyl-terminal hydrolase 2 (USP2, Homo sapiens, UniProt O75604) |  |  |  | > 114 µM
O=C(O)c1cc2cc(-c3ccccc3)ccc2c(I)c1O | Glutamate NMDA receptor; Grin1/Grin2a (Grin1/Grin2a, Rattus norvegicus, UniProt P35439+Q00959) | ion current, two-electrode voltage clamp |  | oocytes | 5.48 µM
COC(=O)c1ccc(NC(=O)CNNc2nc3ccccc3c(=O)n2-c2ccccc2)cc1 | PARP1 | enzyme activity |  |  | 0.0408 µM
O=S(=O)(O)c1cc(N=C=S)ccc1C=Cc1ccc(N=C=S)cc1S(=O)(=O)O | PABPN1 (Homo sapiens, UniProt Q86U42) | inhibitor, AlphaScreen counterscreen |  |  | 11.3 µM and ~11 µM
Oc1cccnc1O | HDAC8 | enzyme activity, inhibitor, SAMDI mass spectrometry |  |  | > 10 µM
CC(C)NCc1ccc(C[C@@H]2NC(=O)[C@H](N(C)C(=O)c3ccc4ccccc4c3)NC(=O)[C@H](Cc3ccccc3)NC(=O)[C@H](N)CSSC[C@@H](C(=O)N[C@@H](Cc3ccc4ccccc4c3)C(N)=O)NC(=O)[C@H](Cc3ccccc3)NC2=O)cc1 | Somatostatin receptor type 5 (SSTR5, Homo sapiens, UniProt P35346) | ligand displacement, radioligand |  | cell membranes | 0.635 µM and 0.279 µM
c1nc2c(NCC3CCC(CNCCCNC4CCCCC4)CC3)nc(N3CCNCC3)nc2[nH]1 (centres unmarked) | CXCR4 | reporter gene, antagonist |  |  | 5.51e-05 µM

SMILES | target | test | test system | setting | IC50
C=CC(=O)N1CCC[C@@H](n2nc(-c3ccc(Oc4ccccc4)cc3)c3c(N)ncnc32)C1 | Equilibrative nucleoside transporter 1 (SLC29A1, Homo sapiens, UniProt Q99808) | transporter uptake, inhibitor, radiometric |  |  | 4.5 µM
NC(=O)c1cccc2c1OC(c1ccc(Br)cc1)C(=O)N2 (centres unmarked) | PARP1 |  |  |  | > 2.5 µM
CCC1(c2ccc(C)cc2)C(=O)N(C(=O)OC(C)C)N1C(=O)OC(C)C (centres unmarked) | Palmitoyl-protein thioesterase ABHD10, mitochondrial (Mus musculus, UniProt Q6PE15) | enzyme activity, inhibitor, gel-based ABPP in situ | Neuro2A | 2 h | 0.021 µM
CC(=O)c1ccc(NS(=O)(=O)c2ccc3c(c2)n(C)c(=O)c(=O)n3C)cc1 | Dipeptidyl peptidase 4 (DPP4, Homo sapiens, UniProt P27487) | enzyme activity, inhibitor, fluorescence |  |  | 0.00128 µM
CCCCCCCOC(=O)c1ccc(O)cc1 | FAAH | enzyme activity, inhibitor, fluorescence |  | with preincubation | 0.15 µM
COc1cc(Cn2cc(COC(=O)NC3CCCCC3)nn2)cc(OC)c1 | FAAH | enzyme activity, inhibitor, fluorescence |  | cell membranes | 0.0036 µM
Cc1ccccc1C(C(=O)NC1CCCCC1)N(C(=O)CNc1ccc(F)nc1)c1cccc(F)c1 (centres unmarked) | Isocitrate dehydrogenase [NADP] cytoplasmic (IDH1, Homo sapiens, UniProt O75874, R132H) | enzyme activity, inhibitor |  | racemic compound, added: α-ketoglutarate | 1.4 µM and 1.39 µM
CCCCC(C(=O)COc1c(F)c(F)cc(F)c1F)n1cc(C2(N)CCN(C(C)=O)CC2)nn1 (centres unmarked) | DPAP1 (Plasmodium falciparum, UniProt Q8IIJ9) | inhibitor, fluorogenic substrate | Plasmodium falciparum lysate | 30 min | > 20 µM
C[C@@H]1CC[C@]2(C(=O)O)CC[C@]3(C)C(=CC[C@@H]4[C@@]5(C)[C@H](O)C(=O)[C@H](O)C(C)(C)[C@@H]5CC[C@]43C)[C@@H]2[C@]1(C)O | Pancreatic alpha-amylase (AMY2, Sus scrofa, UniProt P00690) | enzyme activity, inhibitor, absorbance |  |  | 130 µM
COC(=O)c1cc2c(C(F)(F)F)cc(-c3ccccc3)cc2n1O | L-lactate dehydrogenase B chain (LDHB, Homo sapiens, UniProt P07195) | inhibitor, NADH fluorescence |  | pyruvate competition, added: 150 µM NADH, 200 µM pyruvate | 53.8 ± 4.4 µM
Nc1nc(N)c(N=O)c(OCc2ccc(Cl)cc2)n1 | Cyclin-dependent kinase 2 (CDK2, Homo sapiens, UniProt P24941) | enzyme activity, inhibitor |  |  | > 10 µM
CC(C)C[C@H](NC(=O)[C@H](CCc1ccccc1)NC(=O)CN1CCOCC1)C(=O)N[C@@H](Cc1ccccc1)C(=O)N[C@@H](CC(C)C)C(=O)[C@@]1(C)CO1 | 20S proteasome beta subunits, part β2 subunit (Plasmodium falciparum, UniProt Q8I261+Q8I6T3) | enzyme activity |  | added: Z-VLR-amc 25 µM, PA28α 200 nM | 0.0134 ± 0.0008 µM
COc1ccc(-c2cc(=O)c3c(OC)c([C@@H]4O[C@H](CO)[C@@H](O)[C@H](O)[C@H]4O)c(OC)cc3o2)cc1OC | Glycogen synthase kinase-3 beta (GSK3B, Homo sapiens, UniProt P49841) | enzyme activity, inhibitor, ADP detection |  |  | 239 µM
O=C(O[C@@H]1Cc2c(O)cc(O)cc2O[C@@H]1c1ccc(O)c(O)c1)c1cc(O)c(O)c(O)c1 | Cell division cycle 7-related protein kinase, with DBF4 (CDC7, Homo sapiens, UniProt O00311) | enzyme activity, inhibitor, ADP-Glo luminescence |  | added: ATP 12.5 µM | 33.7 ± 7.55 µM
O=c1[nH]c2ccccc2n1C1CCN(CCCC(c2ccc(F)cc2)c2ccc(F)cc2)CC1 | Multidrug resistance-associated protein 1 (ABCC1, Homo sapiens, UniProt P33527) | efflux, inhibitor | SupT1-Vin overexpressing ABCC1 | added: DiOC2(3) 100 nM | 1.9 ± 0.7 µM
CC(C)[C@H](CO)Nc1nc(Nc2cc(N)cc(Cl)c2)c2ncn(C(C)C)c2n1 | Vascular endothelial growth factor receptor 1 (FLT1, Homo sapiens, UniProt P17948) |  |  |  | > 10 µM
CC[C@@H](C(=O)O)[C@H]1CCN[C@@H]1C(=O)O | AMPA receptor, rat | binding | cortical synaptosomes | added: [3H]-AMPA | > 100 µM
COC(=O)[C@H](C)NC(=O)[C@H](C)NC(=O)[C@H](CCCCNC(C)=S)NC(=O)c1ccc([N+](=O)[O-])cc1 | NAD-dependent protein deacetylase sirtuin-3, mitochondrial (SIRT3, Homo sapiens, UniProt Q9NTG7) | enzyme activity, inhibitor |  |  | 272 µM and > 100 µM
O=C1NC(=O)C(c2ccccc2)(c2ccccc2)N1 | Sodium channel protein type 8 subunit alpha (SCN8A, Homo sapiens, UniProt Q9UQD0) | ion current, inhibitor, automated patch clamp |  | held at V0.5 inactivation for 10 s | 13 µM

Some of these lines once more:
SMILES | target | test | test system | setting | IC50
O=C(O)c1cc2cc(-c3ccccc3)ccc2c(I)c1O | Glutamate NMDA receptor; Grin1/Grin2a (Grin1/Grin2a, Rattus norvegicus, UniProt P35439+Q00959) | ion current, two-electrode voltage clamp |  | oocytes | 5.48 µM
Nc1nc(N)c(N=O)c(OCc2ccc(Cl)cc2)n1 | Cyclin-dependent kinase 2 (CDK2, Homo sapiens, UniProt P24941) | enzyme activity, inhibitor |  |  | > 10 µM
CCCCC(C(=O)COc1c(F)c(F)cc(F)c1F)n1cc(C2(N)CCN(C(C)=O)CC2)nn1 (centres unmarked) | DPAP1 (Plasmodium falciparum, UniProt Q8IIJ9) | inhibitor, fluorogenic substrate | Plasmodium falciparum lysate | 30 min | > 20 µM
COc1ccc(-c2cc(=O)c3c(OC)c([C@@H]4O[C@H](CO)[C@@H](O)[C@H](O)[C@H]4O)c(OC)cc3o2)cc1OC | Glycogen synthase kinase-3 beta (GSK3B, Homo sapiens, UniProt P49841) | enzyme activity, inhibitor, ADP detection |  |  | 239 µM
CC(=O)n1c(=S)[nH]c2ccccc21 | mbtI (Mycobacterium tuberculosis, UniProt P9WFX1) | enzyme activity, inhibitor, continuous fluorescence |  | added: chorismate | 9.2 ± 0.9 µM
